# Results pooled from the literature.
# A part holds a random share of what one study measured. Substitutions count along the parent as printed.

# Sample 1
# Target: Interferon regulatory factor 7, full length, phosphomimetic (IRF7, Homo sapiens, UniProt Q92985, residues 1-503, S471D/S472D/S475D/S476D/S477D/S483D/S484D/S487D)
# Technique: protein-binding microarray
# Molecule type: double-stranded DNA, one strand shown
# Medium: in vitro
# Concentration: 2200 nM top
# Setting: 60-bp whole probe
# With: salmon DNA 0.4 mg/ml
# Baseline: random background probes
# Direction: higher = stronger binding
# Constant ends, left off below: GCCTAGCAC … GTCTTGATTCGCTTGACGCTGCTG
# Construct (chain): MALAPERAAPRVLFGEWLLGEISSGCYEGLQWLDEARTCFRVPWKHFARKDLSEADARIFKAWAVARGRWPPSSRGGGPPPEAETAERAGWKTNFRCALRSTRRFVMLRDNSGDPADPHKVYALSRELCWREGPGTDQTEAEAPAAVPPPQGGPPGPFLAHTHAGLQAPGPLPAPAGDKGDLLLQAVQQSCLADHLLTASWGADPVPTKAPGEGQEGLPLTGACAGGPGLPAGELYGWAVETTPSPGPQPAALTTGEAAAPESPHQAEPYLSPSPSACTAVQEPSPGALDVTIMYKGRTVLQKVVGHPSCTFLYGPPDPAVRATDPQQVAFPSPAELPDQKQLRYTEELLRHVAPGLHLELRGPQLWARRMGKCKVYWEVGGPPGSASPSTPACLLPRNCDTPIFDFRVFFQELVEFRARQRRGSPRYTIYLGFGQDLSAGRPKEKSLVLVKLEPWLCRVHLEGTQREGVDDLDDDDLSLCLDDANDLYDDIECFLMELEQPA
Strand,fitted relative affinity [z-score]
GACTGTATCGGTCTCGGGACGTGCTAG,0.134
GCCGGTTCCCTTTTCCTGACGTGCTAG,3.09
TTAGAACTGCGGTATCGATTAGTGCTA,-0.136
TTAGCACTGCTACTGCTTTAGTGCTAG,0.23
TTAGGTTTCGCGTATCGGTTAGTGCTA,3.13
TCAACTCTGTCCCTCTGACTGTGCTAG,1.17
CTCTATTGCTTTCTCTTTCAGTGCTAG,4.18
TTGGGTTTCCTTTCCCTTTAGTGCTAG,4.35
GACGACATCAGTTTCGAGACGTGCTAG,3.21
GACAGTCTCCTACTGCTGACGTGCTAG,0.516
TCACCTTTTCACTTTACACTGTGCTAG,4.36

# Sample 2
# Target: Centromere-binding protein 1, full length, His-tagged (CBF1, Saccharomyces cerevisiae, UniProt P17106, residues 1-351)
# UniProt P17106, sequence (whole entry, looked up): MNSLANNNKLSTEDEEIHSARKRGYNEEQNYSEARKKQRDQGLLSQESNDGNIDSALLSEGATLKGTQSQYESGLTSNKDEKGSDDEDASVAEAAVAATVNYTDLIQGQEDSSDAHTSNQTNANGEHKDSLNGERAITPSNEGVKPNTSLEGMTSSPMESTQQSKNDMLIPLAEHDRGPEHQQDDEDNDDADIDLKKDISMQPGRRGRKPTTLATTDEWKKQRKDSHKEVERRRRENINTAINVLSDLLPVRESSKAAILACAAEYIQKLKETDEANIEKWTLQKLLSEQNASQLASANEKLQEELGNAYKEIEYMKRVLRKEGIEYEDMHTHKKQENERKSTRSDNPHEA
# Technique: competition protein-binding microarray
# Molecule type: double-stranded DNA, one strand shown
# Medium: in vitro
# Concentration: 2 µM
# Setting: whole 60-bp probe, lowest competitor level
# With: Pho4 competitor, 0.05 µM
# Direction: higher = stronger binding
# Constant ends, left off below: … GTCTTGATTCGCTTGACGCTGCTG
Strand,fluorescence intensity
TAACATAGAATTCTTCACGTGGTCGAAATATGTATA,2720 a.u.
TTAAAACAGAATCGGCACGTGTCCTGATTGCTTCCG,2500 a.u.
GCCTTCGACAAAAAGGGCGTGCAAACTCAACAGCGG,80.5 a.u.
AACCAGTCCAAAAAGTACGTGCAATAAAAGAAGTTG,102 a.u.
TCTGGGTGTAACATTCAGATGCGGGCGTCATTTATT,67.7 a.u.
TTACAGATAATGGTGCATGTGATAGGCTTCGTACCA,620 a.u.
AAACAATTGGACGGCCACGTGGCCGCTCATGTAAGG,1360 a.u.
CATACCCAACCTTGTATCGTGGGTGAAGATATTTGT,77.4 a.u.
CTTTCCCGATCTTTTCACGTGGGATTAGCACATTTG,596 a.u.
CAAACAACAATAATCCACGTGCTTTTCGCGTTTTTT,1550 a.u.

# Sample 3
# Target: CCNA2, cyclin fold, Cln2 fusion (human)
# Technique: yeast growth competition, sequencing
# Medium: yeast
# Setting: strong parent motif
# Baseline: not given
# Direction: higher = stronger binding
# Starting sequence: PKMYT1 docking peptide (human); SFEPRNLLSLFED
Change,normalised enrichment score
F2W,0.264
F11H,-0.315
E12L,1.06
P4S,0.479
E12N,3.16
S1M,4.42

# Further values, each from its own experiment
Molecule,target,assay,system,conditions,how to read,endpoint,value
"PhoQ, residues 284 288 289 292 302 303 ALSMDL","PhoP, residues 12 14 15 18 19 NMSFL (Escherichia coli, UniProt P23836)","Sort-seq, measured: YFP reporter",E. coli,"PhoQ-PhoP variant library, with: 10 µM Mg2+","baseline: high Mg2+ state, higher = stronger signaling",fold induction,2.32

# For quick reference, copied from above (sample 2):
Strand,fluorescence intensity
TAACATAGAATTCTTCACGTGGTCGAAATATGTATA,2720 a.u.
TTAAAACAGAATCGGCACGTGTCCTGATTGCTTCCG,2500 a.u.
